# Published values gathered from unrelated publications.
# Parts stem from different laboratories: compare values within a part only.

# Series 1
# Target: RNA binding protein fox-1 homolog 2, RRM domain, GST-SBP tag (RBFOX2, Homo sapiens, UniProt O43251-10, residues 100-194)
# Technique: RNA Bind-n-Seq
# Form: RNA
# Sample: in vitro
# Concentration: 365 nM
# Setting: natural RNA segment, single round, ends assumed
# Reference: no-protein control
# Reading: higher = stronger binding
# Shared flanks, not repeated: GGGAGUUCUACAGUCCGACGAUC … UGGAAUUCUCGGGUGCCAA
# Residues (chain): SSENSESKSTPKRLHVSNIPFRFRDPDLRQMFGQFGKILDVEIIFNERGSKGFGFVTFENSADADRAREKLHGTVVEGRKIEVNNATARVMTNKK
Oligonucleotide,RBNS enrichment (R)
CGGCUCUCAGAAGCAUUCACACGCACAGAUGUGCAACCUCAGCCAGAAGUUGAAGCUCUUUAAGCCAUUUUAUUUAUUUUGUUUUUUACAGAAUUUGUGCUUUGGUUUGC,0.353
CUACCAUAGAGACGACGCCUCGUAGACCUAAACUCAGACUGUCAGAGGAAAGACACCACAACCAACACGAAAGCAAUUCCUCAUCCUCAGAUGCUCAAAGUCCCUUUUCU,0.442
CUCUCAUUCUCCCAAGGGUUGCAUUAAGGAAGUUGGAGGGAUGCUAUAUGGGGACUGGAUCCCAGUAAGGCUCACAAGGCUAAGGGGAACUUAAGUAUGGGAUACAGCAC,1.28
GUUAGAGAGAAAUUGUAGCACAUUUAAAUUAUUACUCUAAUACUCUUAGACGAUAGAUACCCAUAUUUCUCCACAAAGUCAAUGCUAUCUUUUUAACAGCACUGUAGCAU,1.08
GCAUCAAGAACUCUUAGCACCAUCCUACUGCUGUCGCCACCACCCUGUCCGUCAGAGACUUCUCAAUCCAGUGGCAGUUGGGAUGGGGUUAUGAGGCCUGUCAGGUCUAU,1.6
GUCACAGAGAACUAGUGGUGGCUCUGAGAAGGGGAGGACCUCUGGGCUUUGAUUCCAUCUCCUUGUCUUUUUUCUUUGUUUUUAGAGACAGGGUCCUGCUAUUUCCCAAG,0.562
AGUUCGUUGAGACUUAGUGACCAUUUGGCAUCAAGUUAACAUCACACAAUAGGAAACACCACUUCCACAAGUCUCAAGCCUCAGUGCUAAAGUACUACUGAAAAGGAACU,0.219
AAAGAGAAGACAUCAUCUGGCCAGGCCAAAAAGAAUGGGACAAAGAAAGAAACCCAGAAAACGAGCAAGAGAAAAAAAUCUUCCCCAGUGCCCAACCCCAAUCUCAGCUG,1.2
CAUCCAGGGUCUUCAGUUUCCCGUGCUUGGCUCUUUGGGGUUCAUGUGUCAUGUUGCUUAUGACCCUAUCUGUGAAGCCGGCUCUGGAGUGACAGAGAGAACCUCAAAAA,0.296
GGGAUGAUAGAAUACAAAGAAUAUAUUUUUGUUAUGGCUGGUUACCACCAGCCUUUCUUCCCCUUUGUGUGUGUGGUUCAAGUGUGCACUGGGAGGAGGCUGAGGCCUGU,0.992
GCUUAGAGCAGGGGGAAUGGCAGGGAUUAAGAGCUCAGCUCAGAGCCAGUUACCAAGAUGGAAUGGAGUUGUGACCCAGUAACUGUGUCACGAGAGACCAUGUAUAUAAA,0.78
GAAUAAUAUCAAGAAAUUUUUCUUGUGAGGAAAUUCAUUUGGGGUGUGUACACUAAUGCUGUACUAGAUUCCCACAGAACAUCUAGCAAACAAAACUGAUACAAUCUGCU,0.516

# Series 2
# Target: Sal-like protein 4, full length isoform B (SALL4, Homo sapiens, UniProt Q9UJQ4-2, residues 1-616)
# Technique: universal PBM
# Form: double-stranded DNA, one strand shown
# Sample: in vitro
# Concentration: not given
# Setting: 8-mer, flanks averaged, mean of replicates
# Reading: higher = stronger binding
# Residues (chain): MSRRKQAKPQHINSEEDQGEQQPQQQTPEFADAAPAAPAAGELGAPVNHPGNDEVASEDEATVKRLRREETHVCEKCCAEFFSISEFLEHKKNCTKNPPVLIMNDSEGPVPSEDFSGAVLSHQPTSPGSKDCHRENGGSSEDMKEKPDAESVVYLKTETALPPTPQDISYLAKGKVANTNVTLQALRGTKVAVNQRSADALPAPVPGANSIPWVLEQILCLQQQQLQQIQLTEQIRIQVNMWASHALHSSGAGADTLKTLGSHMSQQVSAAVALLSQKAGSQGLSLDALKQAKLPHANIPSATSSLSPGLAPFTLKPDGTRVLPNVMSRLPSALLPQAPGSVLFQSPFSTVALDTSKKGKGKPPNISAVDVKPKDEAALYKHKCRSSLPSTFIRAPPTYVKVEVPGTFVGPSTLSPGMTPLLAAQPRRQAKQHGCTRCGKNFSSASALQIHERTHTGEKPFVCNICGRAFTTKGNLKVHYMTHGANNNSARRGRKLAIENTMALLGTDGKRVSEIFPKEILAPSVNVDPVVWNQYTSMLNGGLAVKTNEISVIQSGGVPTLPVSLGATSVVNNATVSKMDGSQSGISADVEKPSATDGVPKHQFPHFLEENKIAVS
Oligonucleotide,E-score
GGCCTCGA,-0.237
ATGATTGC,0.22
GATGCGCC,-0.0919
GGACGGGA,-0.178
CTCCGGAA,-0.131
CAAGGGAC,-0.261
CCTGTGAC,-0.19
CGGCTAAC,-0.124
CTCCCCGA,-0.301
GGTAATTA,0.195
AATACGCA,0.104
AAGATCGA,0.104
ACCCAACG,-0.135
GGTACGAC,-0.253
CAGCCGCA,-0.338
ACTCACTA,-0.0241
AAGATGGC,0.106
GAGCCTAC,-0.162
CACCCGAG,-0.273
AGTCAGAG,-0.178
GAATTGCC,-0.0187
AAACGAAG,0.0781
ACCGCGCA,-0.16
CCTTGTCC,-0.204
ATATAGGG,0.0999

# Series 3
# Target: Histone acetyltransferase KAT6A, winged helix 2, GST fusion (KAT6A, Homo sapiens, UniProt Q92794, residues 85-181)
# Technique: protein binding microarray
# Form: double-stranded DNA, one strand shown
# Sample: in vitro
# Concentration: not given
# Setting: 8-mer, flanks averaged, mean of 2 arrays, mostly near background
# Reference: not given
# Reading: higher = stronger binding
# Construct (chain): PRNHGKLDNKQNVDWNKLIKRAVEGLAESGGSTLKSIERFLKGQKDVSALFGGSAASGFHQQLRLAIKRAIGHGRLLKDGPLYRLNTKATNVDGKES
Oligonucleotide,E-score
CTACTTAC,-0.224
GCGTCTTA,-0.0789
TACCTCGA,0.0538
GATGTCAA,-0.133
CCCAGGCA,0.161
CCTGTCTA,-0.0808
ACCGGTAT,-0.0541
ACCTAGGT,-0.145
CATATACG,-0.111
ATGCAGAG,0.0473
ATAAGTCG,-0.2
CAACCGAC,0.241
GCGTCCGA,0.173
GACTGGTA,0.0412
AGACGGCA,0.178
CCGACTAG,-0.119
CGGGGGGC,0.0453
CGTGCACC,-0.0125
ATGAGACG,-0.162
CTCTACCC,-0.0608
AACATTAG,-0.232
CGATGTAC,-0.225
CGTTGTGC,0.136
CTGATTGC,0.0782
GCGGTGCA,-0.00959

# Series 4
# Target: Phosphate system positive regulatory protein PHO4, full length, GST-tagged (PHO4, Saccharomyces cerevisiae, UniProt P07270, residues 1-312)
# Technique: competition protein-binding microarray
# Form: double-stranded DNA, one strand shown
# Sample: in vitro
# Concentration: 2 µM
# Setting: whole 60-bp probe, lowest competitor level
# With: Cbf1 competitor, 0.05 µM
# Reading: higher = stronger binding
# Shared flanks, not repeated: … GTCTTGATTCGCTTGACGCTGCTG
# Construct (chain): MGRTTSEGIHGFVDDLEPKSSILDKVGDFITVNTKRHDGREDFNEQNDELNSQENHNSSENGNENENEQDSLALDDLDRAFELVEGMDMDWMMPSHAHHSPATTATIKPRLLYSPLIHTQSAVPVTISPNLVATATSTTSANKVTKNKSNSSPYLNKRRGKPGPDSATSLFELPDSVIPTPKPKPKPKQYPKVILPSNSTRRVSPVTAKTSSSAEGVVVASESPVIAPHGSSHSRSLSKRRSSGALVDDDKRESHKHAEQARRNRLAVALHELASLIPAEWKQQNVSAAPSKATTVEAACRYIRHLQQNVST
Oligonucleotide,fluorescence intensity [a.u.]
ATACCAGAGTATAGTGACGTGATGGGGTTGCATTAG,6320
CCCCGTAGGGCCCGACACGTCTAAAATATTAACCTC,4290
CGGGGTTAAGTTTTTCACGTGCTGTGCTTGCAGCAG,12700
AAAGGCTCAGATCTGCATGTGTTGTATAACACTGGC,7890
CTTTCCCGATCTTGGCGTGTGGGTGTAGCACATTTG,7330
GCGCCGTTCTCCACAGCCGTGATGGCTAAAGTGGCG,3270
CATACCCAACCTTGGCAGGTGGGTGAAGATATTTGT,7200
GCCACATTGTATCAACGCGTGATGGACAAATGTTTG,9140
TGCGCAACAACTTGAGTTGTGGGTGTATGTCTAGAA,5610
CGTCCTAGCGATTGATCAGTGGGTGCCATGAGGAAG,6560
CAATTACAGAAATGCCCCGTGTAACAAGATGCGCTG,7420
AGCCTGTCTATGGCCAAGCCATGTCAAGTACTACAA,2970
CATACCCAACCTTTTCACGTGTAGTAAGATATTTGT,15400
AAGAACCCGATATCGCACGCTTCTCCAGGGGTCGGT,8440
GAACGTTAGTACTTGACCGTGCAATAATGGGAAGCA,5680
CGTCCTAGCGATTGAATTGTGGGTGCCATGAGGAAG,7080
AAGCCCAGATACAATCACCTGTAGAAAGAAACAAAG,4450
AGCTGATGCAATTATCCAATAATTTCTTTCACCACC,4030
CCCCGAAATTGAGCGCACATGCTCGCAAGATAATAT,11600
TTATAATAAATAGTACACGTTGCAGACATATTTGGA,13900

# A few entries again (series 1):
Oligonucleotide,RBNS enrichment (R)
CUCUCAUUCUCCCAAGGGUUGCAUUAAGGAAGUUGGAGGGAUGCUAUAUGGGGACUGGAUCCCAGUAAGGCUCACAAGGCUAAGGGGAACUUAAGUAUGGGAUACAGCAC,1.28
GUCACAGAGAACUAGUGGUGGCUCUGAGAAGGGGAGGACCUCUGGGCUUUGAUUCCAUCUCCUUGUCUUUUUUCUUUGUUUUUAGAGACAGGGUCCUGCUAUUUCCCAAG,0.562
GCAUCAAGAACUCUUAGCACCAUCCUACUGCUGUCGCCACCACCCUGUCCGUCAGAGACUUCUCAAUCCAGUGGCAGUUGGGAUGGGGUUAUGAGGCCUGUCAGGUCUAU,1.6
GCUUAGAGCAGGGGGAAUGGCAGGGAUUAAGAGCUCAGCUCAGAGCCAGUUACCAAGAUGGAAUGGAGUUGUGACCCAGUAACUGUGUCACGAGAGACCAUGUAUAUAAA,0.78
GGGAUGAUAGAAUACAAAGAAUAUAUUUUUGUUAUGGCUGGUUACCACCAGCCUUUCUUCCCCUUUGUGUGUGUGGUUCAAGUGUGCACUGGGAGGAGGCUGAGGCCUGU,0.992
CUACCAUAGAGACGACGCCUCGUAGACCUAAACUCAGACUGUCAGAGGAAAGACACCACAACCAACACGAAAGCAAUUCCUCAUCCUCAGAUGCUCAAAGUCCCUUUUCU,0.442
GAAUAAUAUCAAGAAAUUUUUCUUGUGAGGAAAUUCAUUUGGGGUGUGUACACUAAUGCUGUACUAGAUUCCCACAGAACAUCUAGCAAACAAAACUGAUACAAUCUGCU,0.516
AGUUCGUUGAGACUUAGUGACCAUUUGGCAUCAAGUUAACAUCACACAAUAGGAAACACCACUUCCACAAGUCUCAAGCCUCAGUGCUAAAGUACUACUGAAAAGGAACU,0.219
CGGCUCUCAGAAGCAUUCACACGCACAGAUGUGCAACCUCAGCCAGAAGUUGAAGCUCUUUAAGCCAUUUUAUUUAUUUUGUUUUUUACAGAAUUUGUGCUUUGGUUUGC,0.353
GUUAGAGAGAAAUUGUAGCACAUUUAAAUUAUUACUCUAAUACUCUUAGACGAUAGAUACCCAUAUUUCUCCACAAAGUCAAUGCUAUCUUUUUAACAGCACUGUAGCAU,1.08
